# Experimental data from different studies.
# ± marks the error that the study gave.
Structure (SMILES),system,setting,how to read,endpoint,result
CCCC[C@H](NC(=O)CNC(=O)CNC(=O)CN1CCN(CC(=O)O)CCN(CC(=O)O)CCN(CC(=O)O)CC1)C(=O)N[C@H]1CC(=O)NCCCC[C@@H](C(N)=O)NC(=O)[C@H](Cc2c[nH]c3ccccc23)NC(=O)[C@H](CCCNC(=N)N)NC(=O)[C@@H](Cc2ccccc2)NC(=O)[C@H](Cc2c[nH]cn2)NC1=O [lutetium-177 labelled],"C57 mouse, female, tumour","intravenous, 0.037 MBq, 2 h",,tissue uptake,21.6 ± 6.27 %ID/g
CC(C)C[C@@H](NC(=O)[C@@H](CC(C)C)NC(=O)[C@@H](CC(=O)O)NC(=O)[C@@H](CC(C)C)NC(=O)[C@@H](CC(C)C)NC(=O)[C@@H](CC(C)C)NC(=O)[C@H](NC(=O)[C@@H](CC(=O)O)NC(=O)[C@H](NC(=O)[C@H]1CCCN1C(=O)[C@@H](Cc1ccccc1)NC(=O)[C@@H](CC(C)C)NC(=O)[C@@H](CC(C)C)NC(=O)[C@@H](CC(=O)O)NC(=O)[C@@H](CC(C)C)NC(=O)[C@@H](Cc1ccc(O)cc1)NC(=O)[C@@H](C)NC(=O)[C@@H](CCCNC(=N)N)NC(=O)[C@@H](Cc1c[nH]c2ccccc12)NC(=O)[C@H]1CCCN1C(=O)[C@@H](CC(N)=O)NC(=O)[C@@H](CCC(N)=O)NC(=O)[C@@H](CC(=O)O)NC(=O)[C@@H](CC(=O)O)NC(=O)[C@@H](CSC1CC(=O)N(CCNC(=O)CN2CCN(CC(=O)O)CCN(CC(=O)O)CC2)C1=O)NC(=O)[C@@H](C)N)[C@H](C)O)[C@H](C)O)C(=O)N[C@H](Cc1c[nH]c2ccccc12)C(=O)O (some centres unmarked) [fluorine-18 labelled],"male nude mice, PC-3 xenograft","intravenous, 4 h",relative to: tumour over bone,tumour-to-bone ratio,3.2 ± 0.7
COC(=O)[C@H](CSSC(C)(C)[C@H](NC(=O)[C@H](CCC(=O)NC[C@H](O)[C@@H](O)[C@H](O)[C@H](O)CO)NC(=O)[C@H](CCC(=O)O)NC(=O)[C@H](CCC(=O)NC[C@H](O)[C@@H](O)[C@H](O)[C@H](O)CO)NC(=O)[C@H](CCC(=O)O)NC(=O)[C@H](CCC(=O)NC[C@H](O)[C@@H](O)[C@H](O)[C@H](O)CO)NC(=O)CC[C@H](NC(=O)c1ccc(NCc2cnc3nc(N)[nH]c(=O)c3n2)cc1)C(=O)O)C(=O)O)NC(=O)CC[C@H](NC(=O)c1ccc(NCc2cnc3nc(N)[nH]c(=N)c3n2)cc1)C(=O)O,dog liver cytosol,"1 µM, 1 h, 37 °C, acidic pH",relative to: pH 7.4,AMT release fold change,≥ 4 fold
CN1C(=O)[C@@H](Cc2ccc(O)cc2)NC(=O)CNC(=O)[C@H](Cc2ccc3ccccc3c2)NC(=O)[C@H](CCCNC(=N)N)NC(=O)[C@H]1CCCNC(=O)c1ccc(CNC(=O)CN2CCN(CC(=O)O)CCN(CC(=O)O)CCN(CC(=O)O)CC2)cc1 [gallium-68 labelled],"C57BL/6 mice, no tumour, excreta","up to 3 h, decay corrected",,excreted dose,72 ± 9%
C=C1CC[C@H](OCCCNC(=O)CCOCCOCCOCCOCCOCCOCCOCCOCCOCCOCCOCCOCCOCCOCCOCCOCCOCCOCCOCCOCCOCCOCCOCCOCCOCCOCCOCCOCCOCCOCCOCCOCCOCCOCCOCCOCCNC(=O)CCN2C(=O)CC(SC[C@H](NC(=O)[C@H](Cc3ccccc3)NC(=O)[C@H](CC(N)=O)NC(=O)[C@H](Cc3c[nH]cn3)NC(=O)[C@@H](NC(=O)[C@H](CC(=O)O)NC(=O)[C@H](CCC(N)=O)NC(=O)[C@H](CC(C)C)NC(=O)[C@H](CCCCN)NC(=O)[C@H](CCCCN)NC(=O)[C@H](CCCNC(=N)N)NC(=O)[C@H](CC(C)C)NC(=O)[C@H](Cc3c[nH]c4ccccc34)NC(=O)[C@H](CCC(=O)O)NC(=O)[C@@H](NC(=O)[C@H](CCCNC(=N)N)NC(=O)[C@H](CCC(=O)O)NC(=O)[C@H](CCSC)NC(=O)[C@H](CO)NC(=O)[C@H](CC(N)=O)NC(=O)[C@H](CC(C)C)NC(=O)[C@H](Cc3c[nH]cn3)NC(=O)[C@H](CCCCN)NC(=O)CNC(=O)[C@H](CC(C)C)NC(=O)[C@H](CC(N)=O)NC(=O)[C@H](Cc3c[nH]cn3)NC(=O)[C@H](CCSC)NC(=O)[C@H](CC(C)C)NC(=O)[C@H](CCC(N)=O)NC(=O)[C@@H](NC(=O)[C@H](CCC(=O)O)NC(=O)[C@H](CO)NC(=O)[C@@H](NC(=O)[C@@H](N)CO)C(C)C)[C@@H](C)CC)C(C)C)C(C)C)C(N)=O)C2=O)C/C1=C/C=C1\CCC[C@]2(C)[C@@H]([C@H](C)CCCC(C)(C)O)CC[C@@H]12 (some centres unmarked),cynomolgus monkey,"sc, 2 µg/kg every other day, 89 days",relative to: 0.7 µg/kg dose,dose-normalised Cmax,0.84
N=C(N)NCCC[C@@H]1NC(=O)[C@H](CCCCNC(=O)CNC(=O)CNC(=O)CNC(=O)CC[C@H](NC(=O)CNC(=O)CNC(=O)CNC(=O)CC[C@H](NC(=O)CN2CCN(CC(=O)O)CCN(CC(=O)O)CCN(CC(=O)O)CC2)C(=O)NCC(=O)NCC(=O)NCC(=O)N[C@@H](CCC(=O)NCC(=O)NCC(=O)NCC(=O)NCCCC[C@@H]2NC(=O)[C@@H](Cc3ccccc3)NC(=O)[C@H](CC(=O)O)NC(=O)CNC(=O)[C@H](CCCNC(=N)N)NC2=O)C(=O)NCC(=O)NCC(=O)NCC(=O)NCCCC[C@@H]2NC(=O)[C@@H](Cc3ccccc3)NC(=O)[C@H](CC(=O)O)NC(=O)CNC(=O)[C@H](CCCNC(=N)N)NC2=O)C(=O)NCC(=O)NCC(=O)NCC(=O)NCCCC[C@@H]2NC(=O)[C@@H](Cc3ccccc3)NC(=O)[C@H](CC(=O)O)NC(=O)CNC(=O)[C@H](CCCNC(=N)N)NC2=O)NC(=O)[C@@H](Cc2ccccc2)NC(=O)[C@H](CC(=O)O)NC(=O)CNC1=O [indium-111 labelled],"female athymic nu/nu mice, blood","intravenous, 0.5 h",,tissue uptake,0.97 ± 0.1 %ID/g
CCCC[C@H](NC(=O)CNC(=O)CNC(=O)CN1CCN(CC(=O)O)CCN(CC(=O)O)CC1)C(=O)N[C@H]1CC(=O)NCCCC[C@@H](C(N)=O)NC(=O)[C@H](Cc2c[nH]c3ccccc23)NC(=O)[C@H](CCCNC(=N)N)NC(=O)[C@@H](Cc2ccccc2)NC(=O)[C@H](Cc2c[nH]cn2)NC1=O [technetium-99m labelled],"C57 mouse, stomach","iv, 0.037 MBq, 0.5 h",,tissue uptake,1.11 ± 0.42 %ID/g
N=C(N)NCCC[C@@H]1NC(=O)[C@H](CCCCNC(=O)CNC(=O)CNC(=O)CNC(=O)CC[C@H](NC(=O)CNC(=O)CNC(=O)CNC(=O)CN2CCN(CC(=O)O)CCN(CC(=O)O)CCN(CC(=O)O)CC2)C(=O)NCC(=O)NCC(=O)NCC(=O)NCCCC[C@@H]2NC(=O)[C@@H](Cc3ccccc3)NC(=O)[C@H](CC(=O)O)NC(=O)CNC(=O)[C@H](CCCNC(=N)N)NC2=O)NC(=O)[C@@H](Cc2ccccc2)NC(=O)[C@H](CC(=O)O)NC(=O)CNC1=O [indium-111 labelled],"female athymic nu/nu mice, liver","intravenous, 24 h",,tissue uptake,1.52 ± 0.15 %ID/g
COc1ccc2cc([C@H](C)C(=O)N[C@H](Cc3ccccc3)C(=O)N[C@H](Cc3ccccc3)C(=O)O)ccc2c1,hydrogel 0.8 wt% into PBS,"24 h, pH 7.4, 37 °C",,cumulative release,6.5%
N=C(N)NCCC[C@@H]1NC(=O)[C@H](CCCCNC(=O)CC[C@H](NC(=O)CC[C@H](NC(=O)CN2CCN(CC(=O)O)CCN(CC(=O)O)CCN(CC(=O)O)CC2)C(=O)N[C@@H](CCC(=O)NCCCC[C@@H]2NC(=O)[C@@H](Cc3ccccc3)NC(=O)[C@H](CC(=O)O)NC(=O)CNC(=O)[C@H](CCCNC(=N)N)NC2=O)C(=O)NCCCC[C@@H]2NC(=O)[C@@H](Cc3ccccc3)NC(=O)[C@H](CC(=O)O)NC(=O)CNC(=O)[C@H](CCCNC(=N)N)NC2=O)C(=O)NCCCC[C@@H]2NC(=O)[C@@H](Cc3ccccc3)NC(=O)[C@H](CC(=O)O)NC(=O)CNC(=O)[C@H](CCCNC(=N)N)NC2=O)NC(=O)[C@@H](Cc2ccccc2)NC(=O)[C@H](CC(=O)O)NC(=O)CNC1=O [indium-111 labelled],"female athymic nu/nu mice, heart","intravenous, 1 h",,tissue uptake,1.23 ± 0.11 %ID/g
CCCC[C@H](NC(=O)CCCCCCCNC(=O)CN1CCN(CC(=O)O)CCN(CC(=O)O)CC1)C(=O)N[C@H]1CC(=O)NCCCC[C@@H](C(N)=O)NC(=O)[C@H](Cc2c[nH]c3ccccc23)NC(=O)[C@H](CCCNC(=N)N)NC(=O)[C@@H](Cc2ccccc2)NC(=O)[C@H](Cc2c[nH]cn2)NC1=O [copper-64 labelled],"C57 mice, blood","intravenous, 0.37 MBq, 2 h",,tissue uptake,0.27 ± 0.05 %ID/g
